Published values collected from several papers.
Several values in a cell are separate wells, animals, samples, runs or records. pEC50, pIC50: −log10 of the molar value.
Cell line: DU-145

With C#CCCCC[C@H](C)C[C@@H](C)C(=O)O the pIC50 was 3.97 and 3.79 and 4.01 (cell growth, sulforhodamine B).
The cell growth of Cc1cc(-c2ccccc2)n(-c2nc(-c3ccc(Cl)cc3)c3c(NC(=O)c4ccccc4)nnc-3[nH]2)n1 is reported as 103% (SRB; 10 µM, NCI60 single-dose screen, prostate cancer; reference: untreated).
CCCN1CCN(c2ccc3[nH]c(-c4ccc5[nH]c(-c6cc(OC)c(OC)c(OC)c6)nc5c4)nc3c2)CC1 gave a growth percent of 109% (SRB; 10 µM, 48 h).
With Cc1cc(=O)[nH]n1-c1nc(-c2ccc(Cl)cc2)c2c(NC(=O)c3ccccc3)nnc-2[nH]1 the cell growth was 103% (SRB; 10 µM, NCI60 single-dose screen, prostate cancer; reference: untreated).
The growth percent of CCCN1CCN(c2ccc3[nH]c(-c4ccc5[nH]c(-c6ccc(OCC)c(OCC)c6)nc5c4)nc3c2)CC1 is reported as -64.1% (SRB; 10 µM, 48 h).
With Cc1cc(=O)[nH]c(=O)n1Cc1cn(-c2cc3ccccc3oc2=O)nn1 the growth percentage was 109% (NCI60 single-dose screen; 10 µM).
COc1ccc(OC)c(-c2nc3ccc(-c4nc5ccc(N6CCN(C)CC6)cc5[nH]4)cc3[nH]2)c1 has a growth percent of 108% (SRB; 10 µM, 48 h).
With O=C(Nc1nnc2n3c(nc(-c4ccc(Cl)cc4)c1-2)SCC3=O)c1ccccc1 the cell growth was 101% (SRB; 10 µM, NCI60 single-dose screen, prostate cancer; reference: untreated).
CCCCN1CCN(c2ccc3[nH]c(-c4ccc5[nH]c(-c6cc(OC)c(OC)c(OC)c6)nc5c4)nc3c2)CC1 gave a growth percent of 91.6% (SRB; 10 µM, 48 h).
O=C(Nc1nnc2n3c(=S)[nH][nH]c3nc(-c3ccc(Cl)cc3)c1-2)c1ccccc1 has a cell growth of 100% (SRB; 10 µM, NCI60 single-dose screen, prostate cancer; reference: untreated).
The growth percentage of O=C1NC(c2ccccc2)(c2ccccc2)C(=O)N1Cc1cn(-c2cc3ccccc3oc2=O)nn1 is reported as 98.9% (NCI60 single-dose screen; 10 µM).
COc1cccc2c1C(=O)c1c(O)c3c(c(O)c1C2=O)C[C@@](O)(C(=O)CO)C[C@@H]3O[C@H]1C[C@H](N)[C@H](O)[C@H](C)O1 gave a pIC50 of 6.12 and 6.74 and 6.32 (cell growth, sulforhodamine B).
CCn1cc(-c2cc(Cn3ccoc3=N)cc3c2CCN([C@@H](C)c2cc(OC)ccn2)C3=O)c(C(F)(F)F)n1 has a pEC50 of 7.54 (cell growth, inhibitor; 120 h).
O=C1NC(=NCc2cccs2)S/C1=C\c1ccc2ncccc2c1 gave a pIC50 of 5.86 (MTS; prostate cancer).
CCCCN1CCN(c2ccc3[nH]c(-c4ccc5[nH]c(-c6ccc(OCC)cc6)nc5c4)nc3c2)CC1 has a growth percent of 68.7% (SRB; 10 µM, 48 h).
The TGI of C#C[C@@]1(O)[C@@H](CO)O[C@@H](n2cc(F)c3c(N)ncnc32)[C@@H]1O is reported as 13.4 µM (SRB; NCI-60 screen).
CCn1cc(-c2cc(Cn3ccnc3)cc3c2CCN([C@H](c2cc(OC)ccn2)C2CC2)C3=O)c(C(F)(F)F)n1 gave a pEC50 of less than 4.52 (cell growth, inhibitor; 120 h).
O=c1ccn(Cc2cn(-c3cc4ccccc4oc3=O)nn2)c(=O)[nH]1 has a growth percentage of 120% (NCI60 single-dose screen; 10 µM).
S=C([S][Au-][P+](CCCCCC[P+]([Au-][S]C(=S)n1cccn1)(c1ccccc1)c1ccccc1)(c1ccccc1)c1ccccc1)n1cccn1 has a log10 TGI of greater than -4 (cell growth, NCI-60 screen; prostate cancer).
For C#C[C@@]1(O)[C@@H](CO)O[C@@H](n2cc(I)c3c(N)ncnc32)[C@@H]1O, the TGI was greater than 100 µM (SRB; NCI-60 screen).
For Cc1cc(=O)[nH]c(=O)n1Cc1cn(-c2c3ccccc3nc3ccccc23)nn1, the growth percentage was 15.7% (NCI60 single-dose screen; 10 µM).
c1ccc([I+]c2ccccc2)cc1 gave a pIC50 of less than 5.00 (cell growth, trypan blue count; 48 h).
CCCN1CCN(c2ccc3[nH]c(-c4ccc5[nH]c(-c6ccc(C(F)(F)F)cc6)nc5c4)nc3c2)CC1 gave a growth percent of -95.3% (SRB; 10 µM, 48 h).
Cn1cncc1C1=CN(c2ncnc3[nH]cnc23)CCS1 gave a TGI of greater than 200 µM (prostate cancer).
The cell growth of Cc1cc(C)n(-c2nc(-c3ccc(Cl)cc3)c3c(NC(=O)c4ccccc4)nnc-3[nH]2)n1 is reported as 106% (SRB; 10 µM, NCI60 single-dose screen, prostate cancer; reference: untreated).
CC(O)[C@@H]1CCCN1C(=O)[C@@H]1CCCN1C(=O)OC(C)(C)C (mixture of isomers) has a pIC50 of 5.66 and 6.85 and 5.51 (cell growth, sulforhodamine B).

For quick reference, copied from above:
Cn1cncc1C1=CN(c2ncnc3[nH]cnc23)CCS1 gave a TGI of greater than 200 µM (prostate cancer).
The cell growth of Cc1cc(C)n(-c2nc(-c3ccc(Cl)cc3)c3c(NC(=O)c4ccccc4)nnc-3[nH]2)n1 is reported as 106% (SRB; 10 µM, NCI60 single-dose screen, prostate cancer; reference: untreated).
